Published values pooled from the literature.
Protocols differ between the studies behind these lines. Several values in a cell are separate wells, animals, samples, runs or records. pIC50: −log10 of the molar value.
Cell line: MCF7

C/C=C(\C)C(=O)O[C@@H]1[C@@H](O)[C@@H]2O[C@H]3[C@H](O[C@@H](CCCCC)CCCCCCC(=O)CCC(=O)OC[C@@H](O2)[C@H]1OC(=O)/C=C/c1ccccc1)O[C@H](C)[C@H](OC(C)=O)[C@@H]3O  pIC50 (cytotoxicity): 7.36
CCN1CCN(CC(=O)Nc2ccc(-c3cccc4c(=O)cc(N5CCOCC5)oc34)c3sc4ccccc4c23)CC1  fold enhancement (clonogenic survival; 1 µM, 16 h, together with: etoposide 1 µM; baseline: etoposide alone over combination): 8.9 fold and < 10 fold and 9 fold
CC[C@@]12SS[C@]3(C(=O)N1C)[C@@H](O)C1(C45c6ccccc6N[C@@H]4N4C(=O)[C@]6([C@@H](C)O)SS[C@]4(C(=O)N6C)[C@H]5O)c4ccccc4N[C@@H]1N3C2=O (stereo partly shown)  pIC50 (cell growth or viability, SRB): 6.21
C=C(C[C@H](N)C(=O)O)C(=O)Nc1ccc(Cl)cc1  concentration increasing cytotoxicity (72 h; baseline: vehicle): 320 µM
CN1C(=O)[C@@]23C[C@]4([C@@]56c7ccccc7N[C@@H]5N5C(=O)[C@]7(C)SS[C@]5(C(=O)N7C)[C@H]6O)c5ccccc5N[C@@H]4N2C(=O)[C@]1(C)SS3  pIC50 (cell growth or viability, SRB): 7.52
N=C(N)NCCC[C@H](NC(=O)[C@H](CCCNC(=N)N)NC(=O)[C@H](CCCNC(=N)N)NC(=O)[C@H](CCCNC(=N)N)NC(=O)[C@H](CCCNC(=N)N)NC(=O)[C@H](CCCNC(=N)N)NC(=O)[C@H](CCCNC(=N)N)NC(=O)[C@H](CCCNC(=N)N)NC(=O)c1ccc2c(c1)C(=O)OC21c2ccc(O)cc2Oc2cc(O)ccc21)C(N)=O  LC50 (MTS): 80 µM
C=C(C[C@H](N)C(=O)O)C(=O)Nc1ccccc1  concentration increasing cytotoxicity (72 h; baseline: vehicle): 320 µM
CN1C(=O)[C@]23SS[C@@]1(C)C(=O)N2[C@H]1Nc2ccccc2[C@@]1([C@@]12c4ccccc4N[C@@H]1N1C(=O)[C@@]4(C)SS[C@]1(C(=O)N4C)[C@H]2O)[C@@H]3O  pIC50 (cell growth or viability, SRB): 6.43
CC/C(=C(\c1ccccc1)c1ccc(OCCN(C)C)cc1)c1ccccc1  concentration increasing cytotoxicity (72 h; baseline: vehicle): 100 µM
Cc1ncsc1-c1ccc(CNC(=O)[C@@H]2C[C@@H](O)CN2C(=O)[C@@H](NC(=O)COCCOCCOCCNC(=O)C[C@@H]2N=C(c3ccc(Cl)cc3)c3c(sc(C)c3C)-n3c(C)nnc32)C(C)(C)C)cc1  cellular uptake (LC-MS/MS; 100 nM, 12 h, serum-free, then 24 h; baseline: dose): 0.049%

For quick reference, copied from above:
CN1C(=O)[C@]23SS[C@@]1(C)C(=O)N2[C@H]1Nc2ccccc2[C@@]1([C@@]12c4ccccc4N[C@@H]1N1C(=O)[C@@]4(C)SS[C@]1(C(=O)N4C)[C@H]2O)[C@@H]3O  pIC50 (cell growth or viability, SRB): 6.43
